# Assay results collected from several papers.
# Compare with care: the assays were run in different laboratories. Values joined by “and” are separate records of one study, mostly repeats; a detail may differ. Numbers after ± are the reported error.
Compound,assay,test system,setting,how to read,endpoint,value
O=C(O)CCC(NP(=O)(O)OCCC[C@@H](NC(=O)CCC(NC(=O)CCCCCNC(=O)CCCCCNC(=O)c1ccc([18F])cc1)C(=O)O)C(=O)O)C(=O)O (some centres unmarked),radioactivity,"mouse, CWR22Rv1 xenograft",2 h,relative to: tumour over blood,tumour to blood ratio,69.6 and 69 and 70
CCN(CC)c1ccc2c(-c3ccccc3C(=O)OCCC[18F])c3ccc(=[N+](CC)CC)cc-3oc2c1,PET imaging,"rat, liver","dose not given, 55 min post injection",relative to: value at 5 min,liver radioactivity,30 to 35%
COc1cc2ccnc(Cc3ccc(O[11CH3])c(OC)c3)c2cc1OC,,"Sprague-Dawley rat, cerebellum","i.v., 30 min",,brain uptake,0.045 %ID/g
CC[C@H](C)[C@H](NC(=O)[C@H]1CCC[C@@H]1NC(=O)[C@H](CCCCN)NC(=O)[C@H](CCCCN)NC(=O)C[C@H](C)NC(=O)[C@@H](NC(=O)[C@H](CCCCN)NC(=O)[C@H]1CCC[C@@H]1NC(=O)[C@H](CC(C)C)NC(=O)CN)C(C)C)C(=O)N[C@@H](CCCCN)C(=O)N[C@@H](CCCCN)CC(=O)N[C@@H](Cc1ccccc1)C(N)=O,circular dichroism,trifluoroethanol in water,,relative to: 15% TFE over 100% TFE,helical rigidity,31 ± 3%
C=Cc1cc(O)cc2nc(-c3ccc(O)c([76Br])c3)oc12,,"female C57BL/6 mouse, uterus","6 h, high dose",,tissue uptake,0.09 ± 0.03 %ID/g
CC[C@@H](C)[C@H](NC(=O)[C@H](C)NC(=O)[C@H](CCCCN)NC(=O)[C@H](CC(C)C)NC(=O)[C@H](C)NC(=O)[C@@H](NC(=O)[C@H](Cc1c[nH]cn1)NC(=O)[C@H](CC(C)C)NC(=O)[C@@H](NC(=O)[C@@H](NC(=O)[C@H](CCCCN)NC(=O)[C@H](CCCCN)NC(=O)[C@H](C)NC(=O)[C@H](CO)NC(=O)[C@H](CCCCN)NC(=O)[C@H](Cc1ccccc1)NC(=O)[C@@H](NC(=O)[C@H](CCCCN)NC(=O)[C@H](CC(C)C)NC(=O)[C@H](Cc1ccccc1)NC(=O)[C@H](CO)NC(=O)[C@H](CCCCN)NC(=O)[C@H](Cc1c[nH]c2ccccc12)NC(=O)[C@H](CCCCN)NC(C)=O)[C@@H](C)O)[C@@H](C)O)C(C)C)[C@@H](C)O)C(=O)N[C@@H](CO)C(=O)N[C@@H](CO)C(N)=O,RP-HPLC,Zorbax 300 SB-C18 column,65 °C,,retention time,26.3 min
CCc1c2c(nc3ccc(OC4OC(C(=O)O)C(O)C(O)C4O)cc13)-c1cc3c(c(=O)n1C2)COC(=O)C3(O)CC (centres unmarked),,"human patients, plasma","intravenous, 56 mg/m^2 of parent drug",,Tmax,6.58 h
Cc1cc(-c2ccc3ccccc3c2)nnc1NCCN1CCN(C)CC1,,"male rat, plasma",oral,,bioavailability,38.8%
CN[C@](C)(C[18F])C(=O)O,,"SCID mouse U87 xenograft, lung","15 min, post injection",,tissue uptake,3.7 ± 0.4 %ID/g
CC(=CCC(O)C(C)=Cc1csc(C)n1)CC=CC(C)C(O)C(C)C(=O)C(C)(C)C(O)CC(=O)O (centres unmarked),,"human, plasma","intravenous infusion, 6.5 mg/m2 KOS-1584, 3 h infusion, cycle 1",,Tmax,3.58 ± 0.8 h
CN(C)C(CNC(=O)Nc1cc(C(F)(F)F)ccc1N1CCOCC1)c1ccncc1 (centres unmarked),,"mouse, serum","intraperitoneal, 240 mg/kg single dose",,serum AST,684 U/L
Cc1cccc(-c2cccc(C)n2)n1.[Cl-].[Cl-].[Ru+2].c1ccc(-c2ccccn2)nc1.c1ccc(-c2ccccn2)nc1,,phosphate buffer with NaCl,"concentration not given, pH 6.0, 37 °C, dark, dialysis",,total release from nanoassemblies,95.3%
O=C([O-])C[N+]12CC(=O)[O][Re-2]1[O]P(=O)([O-])C2.[C-]#[O+].[C-]#[O+].[C-]#[O+] (centres unmarked),HPLC,aqueous solution,"1 d, pH 1, room temperature",,isomer fraction at equilibrium,26%
COCCN1COc2c(cc3c4c(c(=O)oc3c2C)CCC4)C1,,porcine brain lipid,"100 µg/mL, 18 h, pH 7.4",,permeability (Pe),7.8 ± 0.25 ×10⁻⁶ cm/s
CC(C)C[C@H](NC(=O)[C@H](Cc1ccccc1)NC(=O)CNC(=O)C/C=C(\F)[C@@H](N)Cc1ccc(O)cc1)C(=O)O,,"BALB/c mice, plasma","intravenous, 50 mg/kg",,duration of detectable level,2 h
C(#Cc1cncc(OC[C@@H]2CCN2)c1)c1ccccc1,,Caco-2,"100 µM, 2 h, pH 7.4",,Papp B→A,23.4 ×10⁻⁶ cm/s
COC(=O)C[C@](O)(CCCC(C)(C)OC(C)=O)C(=O)O[C@@H]1C(OC)=C[C@]23CCCN2CCc2cc4c(cc2[C@H]13)OCO4,,"CD1 mice, plasma","subcutaneous, 1 mg/kg, 2 h",,concentration,155 ng/mL
CC[C@H](C)[C@H](NC(=O)[C@@H](N)C(C)C)C(=O)N[C@@H](Cc1c[nH]cn1)C(=O)N[C@@H](CCCNC(=N)N)C(=O)N[C@@H](C)C(=O)NCC(=O)N[C@@H](CC(C)C)C(=O)N[C@@H](CCC(N)=O)C(=O)N[C@@H](Cc1ccccc1)C(=O)N1CCC[C@H]1C(=O)N[C@H](C(=O)NCC(=O)N[C@@H](CCCNC(=N)N)C(=O)N[C@H](C(=O)N[C@@H](Cc1c[nH]cn1)C(=O)N[C@@H](CCCNC(=N)N)C(=O)N[C@@H](CC(C)C)C(=O)N[C@@H](CC(C)C)C(=O)N[C@@H](CCCNC(=N)N)C(=O)N[C@@H](CCCCN)C(N)=O)C(C)C)C(C)C,haemolysis,human red blood cells,1 h,,HD10,64 µM
CC(C)C[C@H](NC(=O)[C@H](CCC1CCCCC1)NC(=O)[C@@H]1CCCN1C(=O)c1ccc(F)cc1)C(=O)NC(C)(C)C(=O)N[C@@H](CC(C)C)C(=O)N[C@@H](CC(C)C)C(=O)NC(C)(C)C(=O)NC(C)(C)C(=O)NCCC(=O)NCCN(C)CC(F)F,potentiometric titration,"methanol-water 1:4, NaCl 150 mM",terminal amine,,pKa,< 3.5
Cc1ccc(/C=C/C(=O)O)cc1-c1cc2c(cc1C)C(C)(C)CCC2(C)C,,"Sprague-Dawley rat, male","oral, 100 mg/kg, 2 h, sesame oil vehicle",,blood cholesterol,87 ± 4.9 mg/dL
CC(C)C[C@H](NC(=O)[C@H](CCCCN)NC(=O)[C@H](CCC(=O)O)NC(=O)[C@H](C)NC(=O)[C@@H](NC(=O)[C@H](CCCCN)NC(=O)[C@H](CC(=O)O)NC(=O)[C@H](Cc1ccc(O)cc1)NC(=O)[C@H](Cc1ccccc1)NC(=O)[C@H](C)NC(=O)[C@H](CCCCN)NC(=O)[C@H](CC(C)C)NC(=O)[C@H](Cc1c[nH]c2ccccc12)NC(=O)[C@@H](N)CC(=O)O)C(C)C)C(=O)N[C@@H](CCCCN)C(=O)N[C@@H](CCC(=O)O)C(=O)N[C@@H](C)C(=O)N[C@@H](Cc1ccccc1)C(=O)N1CCC[C@H]1C(=O)N[C@@H](CC(=O)O)C(=O)N[C@@H](Cc1c[nH]c2ccccc12)C(=O)N[C@@H](C)C(=O)N[C@@H](CCCCN)C(=O)N[C@@H](C)C(=O)N[C@@H](C)C(=O)N[C@@H](Cc1ccc(O)cc1)C(=O)N[C@@H](CC(=O)O)C(=O)N[C@@H](CCCCN)C(=O)N[C@@H](C)C(=O)N[C@@H](C)C(=O)N[C@@H](CCC(=O)O)C(=O)N[C@@H](CCCCN)C(=O)N[C@@H](C)C(=O)N[C@@H](CCCCN)C(=O)N[C@@H](CCC(=O)O)C(=O)N[C@@H](C)C(=O)N[C@@H](C)C(=O)O,,"cynomolgus monkey male, plasma","intravenous infusion, 8 mg/kg every other day, day 27",,AUC(0-last),527 µg·h/mL
CC[C@H](C)[C@H](NC(=O)[C@H](C)NC(=O)CNC(=O)[C@@H](N)CCSC)C(=O)N[C@@H](C)C(=O)N[C@@H](CCCCN)C(=O)N[C@@H](CC(C)C)C(=O)N[C@H](C(=O)N[C@@H](C)C(=O)N[C@@H](CCCCN)C(=O)N[C@@H](Cc1ccccc1)C(=O)NCC(=O)N[C@@H](Cc1c[nH]c2ccccc12)C(=O)N1CCC[C@H]1C(=O)N[C@@H](CCCNC(=N)N)C(=O)N[C@H](C(=O)N[C@@H](CCCCN)C(=O)N[C@@H](CCCCN)C(=O)N[C@@H](Cc1ccccc1)C(=O)N[C@@H](Cc1ccc(O)cc1)C(=O)N[C@@H](CCCCN)C(=O)N[C@@H](CCC(N)=O)C(=O)N[C@H](C(=O)N[C@@H](CCSC)C(=O)N[C@@H](CCC(N)=O)C(=O)N[C@@H](Cc1ccccc1)C(=O)N[C@H](C(=O)NCC(=O)N[C@@H](CCC(N)=O)C(=O)NCC(=O)N[C@@H](Cc1c[nH]c2ccccc12)C(=O)N[C@H](C(=O)N[C@H](C(=O)N[C@@H](CC(=O)O)C(=O)N[C@@H](CCC(N)=O)C(=O)N[C@H](C(=O)N[C@@H](CCC(=O)O)C(=O)N[C@@H](CCCCN)C(=O)N[C@@H](Cc1c[nH]c2ccccc12)C(=O)N[C@@H](CC(C)C)C(=O)N[C@@H](CCCCN)C(=O)N[C@@H](CCCNC(=N)N)C(=O)N[C@@H](Cc1c[nH]cn1)C(=O)O)[C@@H](C)CC)[C@@H](C)CC)[C@@H](C)O)[C@@H](C)CC)[C@@H](C)CC)[C@@H](C)CC)C(C)C,"thermal unfolding, far-UV CD",10 mM sodium phosphate,"5-20 µM, pH 7.2",,Tm,47.6 ± 0.3 °C
CSCC[C@H](NC(=O)CNC(=O)[C@H](CC(=O)O)NC(=O)[C@@H](NC(=O)[C@@H](NC(=O)[C@@H](NC(=O)CNC(=O)[C@H](CCC(N)=O)NC(=O)[C@H](CCSC)NC(=O)[C@H](CC(=O)O)NC(=O)[C@H](C)NC(=O)[C@H](C)NC(=O)[C@@H](NC(=O)[C@H](CO)NC(=O)[C@@H](N)CC(C)C)[C@@H](C)O)C(C)C)C(C)C)[C@@H](C)O)C(=O)N[C@@H](C)C(=O)N[C@@H](CO)C(=O)NCC(=O)N[C@@H](CC(C)C)C(=O)N[C@@H](CC(=O)O)C(=O)N[C@@H](CCCCN)C(=O)N[C@@H](CC(=O)O)C(=O)N[C@@H](Cc1ccc(O)cc1)C(=O)N[C@@H](CC(C)C)C(=O)N[C@@H](CCCCN)C(=O)N1CCC[C@H]1C(=O)N[C@@H](CC(=O)O)C(=O)N[C@@H](CC(=O)O)C(=O)O,,"human, serum","intravenous, 2.5 mg/kg, patients, infusion",,Vd,0.529 L/kg
COc1cc(C(=O)NCCOCCOCCOCCNC(=O)c2ccc([18F])nc2)ccc1NC(=O)C1NC(CC(C)(C)C)C(C#N)(c2ccc(Cl)cc2F)C1c1cccc(Cl)c1F (centres unmarked),,"athymic male mice, HepG2 xenograft",2 h,relative to: tumour over blood,tumour-to-tissue ratio,2.66 ± 1
CC(C)[C@H](NC(=O)CNC(=O)[C@H](CCC(N)=O)NC(=O)[C@H](C)N)C(=O)O,,human,"intravenous infusion, 90 mg/kg/h, 2 h infusion",,subjects with any adverse event,66.7%
CN(C)c1ccc(C(=O)NCCCCN2CCN(c3ccccc3O[11CH3])CC2)cc1,,"male Sprague Dawley rat, lung, liver, kidney, muscle, heart","concentration not given, 30 min, added: ciclosporin",relative to: untreated,peripheral organ uptake,no effect
CC[C@H](C)C(=O)N1CCC(NC(=O)Nc2ccc(OC(F)(F)F)c(F)c2)CC1,,healthy volunteers,"oral, 0.5 mg single dose",,subjects with trichomoniasis TEAE,0%
COc1ccc(C)cc1NC(=O)OC1CC2CCCC(C1)N2Cc1ccc(CC[18F])cc1 (centres unmarked),,"BALB/c mice EMT6 tumour, heart","dose not given, 2 h",relative to: initial activity,activity reduction,93%
CCCCCCCC(=O)OC[C@H](NC(=O)[C@H](CO)NC(=O)CN)C(=O)N[C@@H](Cc1ccccc1)C(=O)N[C@@H](CC(C)C)C(=O)N[C@@H](CO)C(=O)N1CCC[C@H]1C(=O)N[C@@H](CCC(=O)O)C(=O)N[C@@H](Cc1cnc[nH]1)C(=O)N[C@@H](CCC(N)=O)C(=O)N[C@@H](CCCNC(=N)N)C(=O)N[C@H](C(=O)N[C@@H](CCC(N)=O)C(=O)N[C@@H](CCC(N)=O)C(=O)N[C@@H](CCCNC(=N)N)C(=O)N[C@@H](CCCCN)C(=O)N[C@@H](CCC(=O)O)C(=O)N[C@@H](CO)C(=O)N[C@@H](CCCCN)C(=O)N[C@@H](CCCCN)C(=O)N1CCC[C@H]1C(=O)N1CCC[C@H]1C(=O)N[C@@H](C)C(=O)N[C@@H](CCCCN)C(=O)N[C@@H](CC(C)C)C(=O)N[C@@H](CCC(N)=O)C(=O)N1CCC[C@H]1C(=O)N[C@@H](CCCNC(=N)N)C(=O)O)C(C)C,ELISA,"human, both sexes, plasma","intravenous infusion, 3 µg/kg/h, 65 min infusion",,AUC(0-90),0.00915 ± 0.00167 µg·h/mL

# Excerpt of the above:
Compound,assay,test system,setting,how to read,endpoint,value
CCc1c2c(nc3ccc(OC4OC(C(=O)O)C(O)C(O)C4O)cc13)-c1cc3c(c(=O)n1C2)COC(=O)C3(O)CC (centres unmarked),,"human patients, plasma","intravenous, 56 mg/m^2 of parent drug",,Tmax,6.58 h
Cc1cc(-c2ccc3ccccc3c2)nnc1NCCN1CCN(C)CC1,,"male rat, plasma",oral,,bioavailability,38.8%
CN[C@](C)(C[18F])C(=O)O,,"SCID mouse U87 xenograft, lung","15 min, post injection",,tissue uptake,3.7 ± 0.4 %ID/g
CC(=CCC(O)C(C)=Cc1csc(C)n1)CC=CC(C)C(O)C(C)C(=O)C(C)(C)C(O)CC(=O)O (centres unmarked),,"human, plasma","intravenous infusion, 6.5 mg/m2 KOS-1584, 3 h infusion, cycle 1",,Tmax,3.58 ± 0.8 h
CN(C)C(CNC(=O)Nc1cc(C(F)(F)F)ccc1N1CCOCC1)c1ccncc1 (centres unmarked),,"mouse, serum","intraperitoneal, 240 mg/kg single dose",,serum AST,684 U/L
